Measured values pooled from the literature.
Each numbered part is a random draw from the data of one study; scales do not carry over between parts. ± marks the error that the study gave.

Series 1 — organism: SARS-CoV-2 Wuhan spike VSV pseudovirus; observed: pseudovirus entry; tested at: 10 µM
SMILES | inhibition [%]
O=C(Nc1ccc(Br)cc1)c1c(O)cccc1O | 69
Cc1cnc(C)c(-c2cc(O)c3c(c2)CN(C(=O)C2CCOCC2)CCO3)n1 | 100
CCc1cc2c(C)cc(=O)oc2cc1O | 87
C=CCc1c(O)c(CC)cc2c(C)cc(=O)oc12 | 100
Cc1noc([C@@H]2CN(Cc3ccc(OC(F)(F)F)cc3)C[C@H]2CO)n1 | 78
Cc1cc(C(=O)N2C[C@@H](COCC3CC3)[C@H](c3ccncc3)C2)c(C)o1 | 78
CCNC(=O)[C@H]1O[C@@H](n2cnc3c(N)nc(NCCc4ccc(CCC(=O)O)cc4)nc32)[C@H](O)[C@@H]1O | 98
CSc1ccc(CN2CC[C@@H](N3CCN(c4ccccc4F)CC3)[C@H](O)C2)cc1 | 71
Cc1ccc2oc(C(=O)NCC3COc4ccccc4O3)c(C)c2c1 (centres unmarked) | 61
COc1ccc(Cl)cc1NC(=O)c1cnc(N2CCN(c3ncccn3)CC2)c2ccccc12 | 53

Mixed results
rep nsp14: Replicase polyprotein 1ab, nsp14 (rep, Severe acute respiratory syndrome coronavirus 2, UniProt P0DTD1)
rep nsp12 RdRp: Replicase polyprotein 1ab, nsp12 RdRp (rep, Severe acute respiratory syndrome coronavirus 2, UniProt P0DTD1)
rep papain-like protease: Replicase polyprotein 1ab, papain-like protease (rep, Severe acute respiratory syndrome coronavirus 2, UniProt P0DTD1)
SMILES | tested on | assay | test system | setting | scale | endpoint | value
O=C(NC1CCN(c2ncnc3[nH]cnc23)CC1)c1cccc(S(=O)(=O)N2CCC2)c1 | rep nsp14 | NSP14 enzyme activity, inhibitor | – | 0.1953 µM | – | inhibition | 11%
CCC(CC)[C@H](NC(C)=O)[C@@H]1[C@H](O)[C@@H](C(=O)O)C[C@H]1N=C(N)N | neuraminidase (Influenza B virus, UniProt C0LT34, H273Y) | – | – | – | – | IC50 | 29 ± 2.8 nM
CC(C)Nc1nc2cc(Cl)c(Cl)cc2n1[C@H]1O[C@@H](CO)[C@H](O)[C@@H]1O | SARS-CoV-2 | infectious virus yield | Vero C1008, Omicron BA.1 | 48 h | – | EC50 | 3000 ± 130 nM
Cc1ccc(-n2[nH]c(C)c(N=Nc3cccc(-c4cccc(C(=O)O)c4)c3O)c2=O)cc1C | rep nsp12 RdRp | binding, biolayer interferometry | – | concentration not given | – | BLI response | -0.01 nm
Cc1ccc(NS(=O)(=O)c2cccc(C(=O)NC3CCN(c4ncnc5[nH]cnc45)CC3)c2)cc1 | rep nsp14 | – | – | 50 µM | – | inhibition | 66.8%
CC(C)CC(=O)Nc1cncc(-c2ccc3[nH]nc(-c4nc5c(-c6cccc(F)c6)cncc5[nH]4)c3c2)c1 | rep nsp12 RdRp | binding, biolayer interferometry | – | concentration not given | – | BLI response | 0.01 nm
C[C@H]1c2cccc(O)c2C(=O)C2=C(O)[C@]3(O)C(=O)C(C(N)=O)=C(O)[C@@H](N(C)C)[C@@H]3[C@@H](O)[C@@H]21 | rep papain-like protease | – | – | concentration not given, C111S mutant | reference: positive control | activity | 27.1%
COc1nc(N)nc2c1ncn2[C@@H]1O[C@H](CO)[C@@H](O)[C@@H]1O | SARS-CoV-2 | viral RNA copies | Vero C1008, Omicron BA.1 | 48 h | – | EC50 | 1760 ± 80 nM
N#C[C@@]1(n2ccc(N)nc2=O)O[C@H](CO)[C@@H](O)[C@H]1O | SARS-CoV-2 | – | Calu-3, Delta | – | – | EC50 | 300 ± 40 nM
Cl[TeH]1(Cl)(Cl)OCCO1 | rep papain-like protease | – | – | concentration not given, C111S mutant | reference: positive control | activity | 6.81%

Excerpt of the above (series 1):
SMILES | inhibition [%]
Cc1cc(C(=O)N2C[C@@H](COCC3CC3)[C@H](c3ccncc3)C2)c(C)o1 | 78
Cc1noc([C@@H]2CN(Cc3ccc(OC(F)(F)F)cc3)C[C@H]2CO)n1 | 78
